# Experimental data from different studies.
# Compare with care: the assays were run in different laboratories. ± gives the spread as reported.
# Cell line: U-251
SMILES,assay,conditions,how to read,quantity,result
O=C1NC(c2ccccc2)(c2ccccc2)C(=O)N1Cc1cn(-c2c3ccccc3nc3ccccc23)nn1,,"10 µM, CNS cancer cell line, NCI60",,growth percentage,91.2%
CCCCN1CCN(c2ccc3[nH]c(-c4ccc5[nH]c(-c6cc(OC)c(OC)c(OC)c6)nc5c4)nc3c2)CC1,SRB,"10 µM, 48 h",,growth percent,56.3%
Cn1cncc1C1=CN(c2ncnc3[nH]cnc23)CCS1,,CNS cancer,,TGI,> 200 µM
COc1ccc(-c2ccc3ncc4c(c3c2)n([C@@H]2CCN(C)CC2(F)F)c(=O)n4C)cn1,immunofluorescence,"30 nM, 1 h after irradiation, together with: radiation 5 Gy",,γH2AX foci induction,18.5 ± 5%
CCCCN1CCN(c2ccc3[nH]c(-c4ccc5[nH]c(-c6ccc(OCC)cc6)nc5c4)nc3c2)CC1,SRB,"10 µM, 48 h",,growth percent,60.5%
O=C1NC(=NCc2cccs2)S/C1=C\c1ccc2ncccc2c1,MTS,NCI60 panel,,IC50,1.92 µM
CCCCN1CCN(c2ccc3nc(-c4ccc5nc(-c6cc(OC)ccc6OC)[nH]c5c4)[nH]c3c2)CC1,SRB,"10 µM, 48 h",,growth percent,84%
Cn1ncnc1[C@H]1c2n[nH]c(=O)c3cc(F)cc(c23)N[C@@H]1c1ccc(F)cc1,immunofluorescence,"3 nM, together with: temozolomide 100 µM",reference: DMSO,RPA and γH2AX foci,no effect
CSc1nc(-c2ccc(Cl)cc2)c2c(NC(=O)c3ccccc3)nnc-2[nH]1,SRB,"10 µM, NCI60 single-dose screen",reference: untreated,cell growth,96.7%
CN1CCN(c2ccc3[nH]c(-c4ccc5[nH]c(-c6ccc(C(F)(F)F)cc6)nc5c4)nc3c2)CC1,SRB,"10 µM, 48 h",,growth percent,34.7%
CC1=CC(=O)C(C(C)C)=CC1=O,PI staining flow cytometry,"concentration not given, 48 h",,cells in S phase,45.5%
O=C(Nc1nnc2[nH]c(=S)[nH]c(-c3ccc(Cl)cc3)c1-2)c1ccccc1,SRB,"10 µM, NCI60 single-dose screen",reference: untreated,cell growth,107%
C=CC(=O)Nc1cc(Nc2nccc(-c3cn(C)c4ccccc34)n2)c(OC)cc1N(C)CCN(C)C,qRT-PCR,"30 µM, 24 h",reference: untreated,MAPK1 mRNA level,~1.5 fold
O=C(Nc1nnc2n3c(Cc4ccccc4)n[nH]c3nc(-c3ccc(Cl)cc3)c1-2)c1ccccc1,SRB,"10 µM, NCI60 single-dose screen",reference: untreated,cell growth,101%
C#C[C@@]1(O)[C@@H](CO)O[C@@H](n2cc(F)c3c(N)ncnc32)[C@@H]1O,SRB,NCI-60 screen,,TGI,11.6 µM
Cc1cc(=O)[nH]c(=O)n1Cc1cn(-c2cc3ccccc3oc2=O)nn1,,"10 µM, CNS cancer cell line, NCI60",,growth percentage,101%
O=C(Nc1nnc2n3c(nc(-c4ccc(Cl)cc4)c1-2)SCC3=O)c1ccccc1,SRB,"10 µM, NCI60 single-dose screen",reference: untreated,cell growth,109%
CCCN1CCN(c2ccc3nc(-c4ccc5nc(-c6cc(OC)ccc6OC)[nH]c5c4)[nH]c3c2)CC1,SRB,"10 µM, 48 h",,growth percent,85.8%
Cc1cc(-c2ccccc2)n(-c2nc(-c3ccc(Cl)cc3)c3c(NC(=O)c4ccccc4)nnc-3[nH]2)n1,SRB,"10 µM, NCI60 single-dose screen",reference: untreated,cell growth,93.1%
CCOc1ccc(-c2nc3cc(-c4nc5cc(N6CCN(C)CC6)ccc5[nH]4)ccc3[nH]2)cc1OCC,SRB,"10 µM, 48 h",,growth percent,4.64%
O=c1ccn(Cc2cn(-c3c4ccccc4nc4ccccc34)nn2)c(=O)[nH]1,,"10 µM, CNS cancer cell line, NCI60",,growth percentage,89.5%

# For quick reference, copied from above:
SMILES,assay,conditions,how to read,quantity,result
Cc1cc(-c2ccccc2)n(-c2nc(-c3ccc(Cl)cc3)c3c(NC(=O)c4ccccc4)nnc-3[nH]2)n1,SRB,"10 µM, NCI60 single-dose screen",reference: untreated,cell growth,93.1%
C=CC(=O)Nc1cc(Nc2nccc(-c3cn(C)c4ccccc34)n2)c(OC)cc1N(C)CCN(C)C,qRT-PCR,"30 µM, 24 h",reference: untreated,MAPK1 mRNA level,~1.5 fold
